Measured values gathered from unrelated publications.
Protocols differ between the studies behind these lines. Values joined by “and” are separate records of one study, mostly repeats; a detail may differ. Numbers after ± are the reported error.
EPHX2: Bifunctional epoxide hydrolase 2 (EPHX2, Homo sapiens, UniProt P34913)
Sequence of UniProt P34913 (whole entry, looked up): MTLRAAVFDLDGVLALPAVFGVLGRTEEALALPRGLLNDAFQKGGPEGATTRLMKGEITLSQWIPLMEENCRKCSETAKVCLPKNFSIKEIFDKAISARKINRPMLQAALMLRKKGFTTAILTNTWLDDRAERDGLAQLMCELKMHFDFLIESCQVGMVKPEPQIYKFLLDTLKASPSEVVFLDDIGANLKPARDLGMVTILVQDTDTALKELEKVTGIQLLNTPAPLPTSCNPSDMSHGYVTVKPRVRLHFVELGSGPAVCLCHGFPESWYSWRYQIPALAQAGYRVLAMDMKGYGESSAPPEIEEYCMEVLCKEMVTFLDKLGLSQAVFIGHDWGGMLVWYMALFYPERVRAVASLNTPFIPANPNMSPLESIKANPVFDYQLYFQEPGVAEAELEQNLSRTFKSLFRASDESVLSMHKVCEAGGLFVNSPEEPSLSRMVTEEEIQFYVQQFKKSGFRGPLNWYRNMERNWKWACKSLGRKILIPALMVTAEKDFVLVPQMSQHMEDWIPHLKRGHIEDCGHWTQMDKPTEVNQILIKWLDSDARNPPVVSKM
AAK1: AP2-associated protein kinase 1 (AAK1, Homo sapiens, UniProt Q2M2I8)
Sequence of UniProt Q2M2I8 (whole entry, looked up): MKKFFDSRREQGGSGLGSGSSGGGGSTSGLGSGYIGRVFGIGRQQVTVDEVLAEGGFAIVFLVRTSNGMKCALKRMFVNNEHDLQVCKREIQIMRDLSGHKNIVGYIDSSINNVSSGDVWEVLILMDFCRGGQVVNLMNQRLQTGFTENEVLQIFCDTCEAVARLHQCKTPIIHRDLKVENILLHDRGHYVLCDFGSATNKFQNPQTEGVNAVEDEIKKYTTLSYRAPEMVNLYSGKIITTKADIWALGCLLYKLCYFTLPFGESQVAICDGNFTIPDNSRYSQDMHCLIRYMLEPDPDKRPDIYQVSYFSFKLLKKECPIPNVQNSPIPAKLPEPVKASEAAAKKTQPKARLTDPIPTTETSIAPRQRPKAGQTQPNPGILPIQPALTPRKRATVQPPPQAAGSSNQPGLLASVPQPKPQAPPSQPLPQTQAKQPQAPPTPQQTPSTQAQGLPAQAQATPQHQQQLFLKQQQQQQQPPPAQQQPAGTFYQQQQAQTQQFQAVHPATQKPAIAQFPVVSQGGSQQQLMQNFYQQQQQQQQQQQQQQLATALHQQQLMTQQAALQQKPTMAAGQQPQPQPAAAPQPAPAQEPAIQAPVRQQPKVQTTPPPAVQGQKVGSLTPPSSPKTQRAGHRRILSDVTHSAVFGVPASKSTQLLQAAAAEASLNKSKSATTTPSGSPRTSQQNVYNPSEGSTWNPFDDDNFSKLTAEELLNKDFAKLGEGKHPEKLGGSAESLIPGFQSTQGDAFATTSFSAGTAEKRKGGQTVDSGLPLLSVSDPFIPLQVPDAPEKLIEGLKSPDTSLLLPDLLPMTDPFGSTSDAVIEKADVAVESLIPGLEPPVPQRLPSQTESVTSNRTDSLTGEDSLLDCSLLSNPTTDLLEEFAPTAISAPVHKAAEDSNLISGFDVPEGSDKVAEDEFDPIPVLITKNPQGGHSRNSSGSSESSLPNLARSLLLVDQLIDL
ache: Acetylcholinesterase (ache, Electrophorus electricus, UniProt O42275)
Sequence of UniProt O42275 (whole entry, looked up): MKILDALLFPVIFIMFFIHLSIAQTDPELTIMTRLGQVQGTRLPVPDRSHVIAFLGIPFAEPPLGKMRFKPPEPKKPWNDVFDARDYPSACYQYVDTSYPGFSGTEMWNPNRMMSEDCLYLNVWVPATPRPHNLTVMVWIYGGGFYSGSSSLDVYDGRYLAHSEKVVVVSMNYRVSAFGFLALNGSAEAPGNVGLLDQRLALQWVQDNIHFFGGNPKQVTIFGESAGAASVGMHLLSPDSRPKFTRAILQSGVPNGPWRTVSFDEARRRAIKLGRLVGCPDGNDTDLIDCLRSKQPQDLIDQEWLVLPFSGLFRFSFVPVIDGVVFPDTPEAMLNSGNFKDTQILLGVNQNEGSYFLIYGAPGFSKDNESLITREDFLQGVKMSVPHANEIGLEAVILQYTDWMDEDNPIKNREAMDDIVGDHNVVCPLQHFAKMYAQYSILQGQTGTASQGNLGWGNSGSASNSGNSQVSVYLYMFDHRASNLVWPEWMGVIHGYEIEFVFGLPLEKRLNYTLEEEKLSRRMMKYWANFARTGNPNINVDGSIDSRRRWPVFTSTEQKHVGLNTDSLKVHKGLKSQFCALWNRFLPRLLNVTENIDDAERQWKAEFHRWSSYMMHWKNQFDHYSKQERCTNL
Ephx2: Bifunctional epoxide hydrolase 2 (Ephx2, Mus musculus, UniProt P34914)
Sequence of UniProt P34914 (whole entry, looked up): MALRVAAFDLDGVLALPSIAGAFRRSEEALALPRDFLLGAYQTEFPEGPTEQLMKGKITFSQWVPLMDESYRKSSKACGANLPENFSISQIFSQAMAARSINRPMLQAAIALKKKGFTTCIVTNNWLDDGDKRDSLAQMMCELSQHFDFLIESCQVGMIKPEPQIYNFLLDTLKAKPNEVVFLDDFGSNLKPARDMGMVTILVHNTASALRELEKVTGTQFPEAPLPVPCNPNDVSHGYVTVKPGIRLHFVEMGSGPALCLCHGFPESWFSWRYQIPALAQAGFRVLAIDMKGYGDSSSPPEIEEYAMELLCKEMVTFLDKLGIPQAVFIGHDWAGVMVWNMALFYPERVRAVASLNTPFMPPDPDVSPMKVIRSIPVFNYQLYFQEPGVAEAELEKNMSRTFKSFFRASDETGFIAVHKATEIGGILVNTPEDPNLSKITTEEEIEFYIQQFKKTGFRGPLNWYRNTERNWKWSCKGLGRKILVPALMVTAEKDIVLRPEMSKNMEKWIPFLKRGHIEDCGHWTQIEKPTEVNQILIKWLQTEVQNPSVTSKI
HLA class I histocompatibility antigen, B alpha chain allele B*27:05: HLA class I histocompatibility antigen, B alpha chain, allele B*27:05 (Homo sapiens, UniProt P01889)
Sequence of UniProt Q9H9B1 (whole entry, looked up): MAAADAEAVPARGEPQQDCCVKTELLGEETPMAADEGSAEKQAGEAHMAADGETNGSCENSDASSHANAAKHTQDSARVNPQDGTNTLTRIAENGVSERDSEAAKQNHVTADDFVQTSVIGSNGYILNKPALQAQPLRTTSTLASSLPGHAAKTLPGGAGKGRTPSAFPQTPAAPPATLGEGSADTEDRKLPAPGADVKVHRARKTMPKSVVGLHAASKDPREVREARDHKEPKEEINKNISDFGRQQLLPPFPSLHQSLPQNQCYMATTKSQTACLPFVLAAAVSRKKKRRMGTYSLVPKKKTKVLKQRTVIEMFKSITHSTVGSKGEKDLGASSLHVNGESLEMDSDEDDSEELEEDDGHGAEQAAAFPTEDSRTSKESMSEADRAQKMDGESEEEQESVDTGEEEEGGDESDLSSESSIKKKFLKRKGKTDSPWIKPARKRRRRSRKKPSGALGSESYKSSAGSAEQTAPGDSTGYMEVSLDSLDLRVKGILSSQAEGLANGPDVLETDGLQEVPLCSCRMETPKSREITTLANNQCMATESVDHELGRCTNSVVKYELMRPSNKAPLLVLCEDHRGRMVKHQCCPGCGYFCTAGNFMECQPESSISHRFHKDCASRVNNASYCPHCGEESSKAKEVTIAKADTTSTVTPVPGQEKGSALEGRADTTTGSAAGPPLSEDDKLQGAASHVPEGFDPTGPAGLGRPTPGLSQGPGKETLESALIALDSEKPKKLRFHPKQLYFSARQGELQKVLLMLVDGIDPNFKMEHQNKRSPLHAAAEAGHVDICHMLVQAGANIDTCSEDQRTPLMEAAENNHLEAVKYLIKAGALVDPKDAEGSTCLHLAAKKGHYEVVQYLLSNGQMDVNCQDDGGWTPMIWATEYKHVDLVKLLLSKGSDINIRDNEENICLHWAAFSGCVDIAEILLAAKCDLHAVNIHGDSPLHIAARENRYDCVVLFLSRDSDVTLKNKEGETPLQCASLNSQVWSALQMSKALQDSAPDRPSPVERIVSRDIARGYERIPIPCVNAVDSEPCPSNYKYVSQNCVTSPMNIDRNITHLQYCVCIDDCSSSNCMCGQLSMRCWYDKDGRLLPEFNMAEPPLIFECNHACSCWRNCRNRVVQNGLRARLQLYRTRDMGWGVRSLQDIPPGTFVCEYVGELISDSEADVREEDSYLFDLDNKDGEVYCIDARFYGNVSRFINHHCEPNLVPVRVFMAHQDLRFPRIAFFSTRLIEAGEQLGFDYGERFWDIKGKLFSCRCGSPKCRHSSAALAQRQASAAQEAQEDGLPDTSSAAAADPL
Sequence of UniProt P35372 (whole entry, looked up): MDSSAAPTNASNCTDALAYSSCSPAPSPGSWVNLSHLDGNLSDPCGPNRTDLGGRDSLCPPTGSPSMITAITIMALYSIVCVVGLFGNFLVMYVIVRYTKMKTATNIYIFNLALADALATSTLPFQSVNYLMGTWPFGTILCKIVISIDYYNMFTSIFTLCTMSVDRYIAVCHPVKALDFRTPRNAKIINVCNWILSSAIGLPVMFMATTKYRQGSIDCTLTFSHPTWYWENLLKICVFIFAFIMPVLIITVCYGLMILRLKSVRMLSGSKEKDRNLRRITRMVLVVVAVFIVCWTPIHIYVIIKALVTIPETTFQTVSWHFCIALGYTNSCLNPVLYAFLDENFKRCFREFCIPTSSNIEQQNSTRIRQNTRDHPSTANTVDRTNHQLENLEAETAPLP
Sequence of UniProt Q86YV6 (whole entry, looked up): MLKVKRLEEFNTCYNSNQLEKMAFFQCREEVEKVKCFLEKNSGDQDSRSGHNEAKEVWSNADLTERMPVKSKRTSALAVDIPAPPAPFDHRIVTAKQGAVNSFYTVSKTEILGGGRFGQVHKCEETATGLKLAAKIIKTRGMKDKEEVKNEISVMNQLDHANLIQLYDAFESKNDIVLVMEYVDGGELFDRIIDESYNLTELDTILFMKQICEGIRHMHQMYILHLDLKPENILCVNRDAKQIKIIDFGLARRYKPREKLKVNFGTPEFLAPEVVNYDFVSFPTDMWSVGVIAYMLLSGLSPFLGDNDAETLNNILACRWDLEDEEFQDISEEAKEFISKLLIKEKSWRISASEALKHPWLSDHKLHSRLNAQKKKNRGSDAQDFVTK

With `Cc1ccc(S(=O)(=O)Nc2c(N3CCC(NC(=O)Nc4ccc(Cl)c(F)c4)CC3)c(=O)c2=O)cc1` the IC50 was 50 ± 4.5 nM (EPHX2).
`O=C1C(O)=C([C@H]2CC[C@H](c3ccc(Cl)cc3)CC2)C(=O)c2ccccc21` gave an IC50 of 0.2 nM (MT-CYB, bc1 complex (Plasmodium falciparum, UniProt Q02768)).
The IC50 of `Cc1ccc(S(=O)(=O)Nc2c(N3CCC(NC(=O)Nc4ccc(F)c(C(F)(F)F)c4)CC3)c(=O)c2=O)cc1` is reported as 7.1 ± 0.4 nM (EPHX2).
With `O=C(Nc1ccc(-c2ccc3ccccc3n2)cc1)C1CCN(Cc2ccc(F)cc2F)CC1` the IC50 was 420 nM (EPHX2).
With `COc1ccc(-c2ccc3[nH]cc(C#Cc4cccnc4)c3c2)cc1OC` the IC50 was over 10000 nM (AAK1).
For `N#Cc1ccccc1`, the Km was 3.45 ± 0.19 mM (nitrilase (Rhodococcus rhodochrous, UniProt A4LA85, Y142F); ammonia release; pH 7.5, 25 °C, 10% methanol).
The IC50 of `CCCCCn1c2ccccc2c2cc(C(=O)NCC3CCN(CC(=O)NC(C)(C)C)CC3)ccc21` is reported as 1480 ± 200 nM (Voltage-dependent T-type calcium channel subunit alpha-1H (CACNA1H, Homo sapiens, UniProt O95180); T-type calcium current, blocker, whole-cell voltage clamp; tsA201 cells transiently expressing hCav3.2; tonic block).
For `Cc1ccc(S(=O)(=O)Nc2c(N3CCC(NC(=O)Nc4ccc(OC(F)(F)F)c(F)c4)CC3)c(=O)c2=O)cc1`, the IC50 was 6.3 ± 0.5 nM (EPHX2).
With `COc1ccc(-c2ccnc3[nH]nc(C#Cc4cccnc4)c23)cc1OC` the IC50 was 1.67 nM (AAK1).
The IC50 of `Cc1c2ccncc2c(C)c2c1[nH]c1ccccc12` is reported as 7.1 nM (Myosin light chain kinase family member 4 (MYLK4, Homo sapiens, UniProt Q86YV6)).
For `Cc1ccccc1S(=O)(=O)Nc1c(N2CCC(NC(=O)Nc3ccc(F)c(Cl)c3)CC2)c(=O)c1=O`, the IC50 was 27.4 ± 1.9 nM (EPHX2).
The IC50 of `COc1cc(-c2ccnc3[nH]cc(C#Cc4cccnc4)c23)ccc1F` is reported as 1.57 nM (AAK1).
The IC50 of `Cc1cccc(CN2CCC(C(=O)Nc3ccc(-c4cnc5ccccc5c4)cc3)CC2)c1` is reported as 5210 nM (ache).
`Cc1ccccc1S(=O)(=O)Nc1c(N2CCC(NC(=O)Nc3ccc(F)c(C(F)(F)F)c3)CC2)c(=O)c1=O` has an IC50 of 1550 ± 128 nM (Ephx2).
`O=C(O)CCCC[C@@H]1SC[C@@H]2NC(=O)N[C@@H]21` gave an IC50 of 1300 to 1700 nM and 1330 nM (Histone-lysine N-methyltransferase EHMT1 (EHMT1, Homo sapiens, UniProt Q9H9B1); inhibitor; apparent, bead displacement artifact).
`Cc1ccc(S(=O)(=O)Nc2c(N3CCC(NC(=O)Nc4ccc(C#N)cc4Cl)CC3)c(=O)c2=O)cc1` has an IC50 of 9.2 ± 1.1 nM (Ephx2).
The IC50 of `COc1cc(OC)cc(-c2ccc(-c3cc(OC)cc(OC)c3)s2)c1` is reported as about 5000 nM (Cytochrome P450 1A1 (CYP1A1, Homo sapiens, UniProt P04798); enzyme activity, inhibitor; 20 min).
With `O=C(Nc1ccc(-c2ccc3ccccc3n2)cc1)C1CCN(Cc2cccc(F)c2)CC1` the IC50 was 2500 nM and 2510 nM (ache).
`Cc1c(C2(c3ccc(C(F)(F)F)c(C#N)c3)CC2)c[nH]c1C(=O)NC(C)c1nc[nH]n1` (stereo not drawn) gave an IC50 of 35000 nM (5-hydroxytryptamine receptor 2A (HTR2A, Homo sapiens, UniProt P28223)).
`O=C(Nc1ccc(-c2ccc3ccccc3n2)cc1)C1CCN(Cc2ccc(F)cc2)CC1` has an IC50 of 1490 nM and 1500 nM (ache).
With `COc1ccc(-c2cc3c(C#Cc4cccnc4)c[nH]c3cn2)cc1OC` the IC50 was 3120 nM (AAK1).
`O=C(Nc1ccc(-c2cnc3ccccc3c2)cc1)C1CCN(Cc2ccccc2)CC1` gave an IC50 of 76.6 nM (EPHX2).
With `Cc1ccccc1S(=O)(=O)Nc1c(N2CCC(NC(=O)Nc3ccc(C(F)(F)F)cc3)CC2)c(=O)c1=O` the IC50 was 542 ± 64.8 nM (Ephx2).
`Cc1cc(OCc2nnc(SC3CCCC3)n2-c2cccnc2)ccc1-c1ccc(S(C)(=O)=O)cc1` has a GI50 of 1860 nM (TK-10).
`CC[C@H](C)[C@H](NC(=O)[C@H](Cc1c[nH]c2ccccc12)NC(=O)[C@H](CCCNC(=N)N)NC(=O)[C@@H](N)CCCNC(=N)N)C(=O)N[C@@H](CCC(N)=O)C(=O)N[C@@H](CC(C)C)C(=O)NCC(=O)N[C@@H](CC(C)C)C(=O)N[C@@H](CCC(N)=O)C(=O)N[C@@H](CCCCN)C(=O)O` gave an IC50 of 0.0027 nM (HLA class I histocompatibility antigen, B alpha chain allele B*27:05).
With `CN1CC[C@]23c4c5ccc(O)c4O[C@H]2[C@@H](OS(=O)(=O)O)C=C[C@H]3[C@H]1C5` the Ki was 0.98 nM (Mu-type opioid receptor (OPRM1, Homo sapiens, UniProt P35372)).
`O=C(Nc1ccc(OC(F)(F)F)c(F)c1)NC1CCN(c2c(NS(=O)(=O)Cc3ccccc3)c(=O)c2=O)CC1` has an IC50 of 21.1 ± 1.8 nM (Ephx2).
`CC(C)C[C@H](NC(=O)[C@H](C)NC(=O)[C@H](CCC(=O)O)NC(=O)[C@H](Cc1c[nH]c2ccccc12)NC(=O)CNC(=O)[C@H](CCCNC(=N)N)NC(=O)[C@H](CCCNC(=N)N)NC(=O)CN)C(=O)N[C@@H](CCCCN)C(=O)N[C@@H](Cc1ccc(O)cc1)C(=O)O` has an IC50 of 129 nM (HLA class I histocompatibility antigen, B alpha chain allele B*27:05).
The IC50 of `COc1ccc(-c2ccnc3[nH]cc(C#Cc4cccnc4)c23)cc1F` is reported as 2.42 nM (AAK1).
With `O=C(Nc1ccc(-c2ccc3ccccc3n2)cc1)C1CCN(Cc2ccccc2F)CC1` the IC50 was 2300 nM (ache).
With `O=[N+]([O-])c1ccc2c(c1)[I+]c1ccccc1-2` the IC50 was 412 ± 236 nM (DUOX2, with DUOXA2 (Homo sapiens, UniProt Q9NRD8); hydrogen peroxide production, Amplex Red; HEK293 expressing target; 30 min).
With `O=C(Nc1ccc(-c2cnc3ccccc3c2)cc1)C1CCN(Cc2ccccc2[N+](=O)[O-])CC1` the IC50 was 7740 nM (ache).
With `C(#Cc1c[nH]c2nccc(-c3cccnc3)c12)c1cccnc1` the IC50 was 2.33 nM (AAK1).

Some of these lines once more:
`O=C(Nc1ccc(OC(F)(F)F)c(F)c1)NC1CCN(c2c(NS(=O)(=O)Cc3ccccc3)c(=O)c2=O)CC1` has an IC50 of 21.1 ± 1.8 nM (Ephx2).
`CC(C)C[C@H](NC(=O)[C@H](C)NC(=O)[C@H](CCC(=O)O)NC(=O)[C@H](Cc1c[nH]c2ccccc12)NC(=O)CNC(=O)[C@H](CCCNC(=N)N)NC(=O)[C@H](CCCNC(=N)N)NC(=O)CN)C(=O)N[C@@H](CCCCN)C(=O)N[C@@H](Cc1ccc(O)cc1)C(=O)O` has an IC50 of 129 nM (HLA class I histocompatibility antigen, B alpha chain allele B*27:05).
The IC50 of `COc1ccc(-c2ccnc3[nH]cc(C#Cc4cccnc4)c23)cc1F` is reported as 2.42 nM (AAK1).
With `O=C(Nc1ccc(-c2ccc3ccccc3n2)cc1)C1CCN(Cc2ccccc2F)CC1` the IC50 was 2300 nM (ache).
